Experimental data from different studies.
Compare with care: the assays were run in different laboratories. Several values in a cell are separate wells, animals, samples, runs or records. Numbers after ± are the reported error.

SMILES	test	system	setting	how to read	measurement	result
Cc1ccc(O)c(-n2nc3ccccc3n2)c1	–	human aged 21-60 years	concentration not given, sunscreen, 95th percentile	–	daily dermal exposure dose	4080 ng/kg/day
C[C@@H](N)C1CCN(S(=O)(=O)c2cccc3cnccc23)CC1	–	healthy volunteers	250 mg, fasted	–	participants with TEAEs	66.7%
CCc1cc(C(=O)NC)c2nccc(N3CCc4c(cc(Cn5ccnc5)cc4-c4cn(C)nc4C(F)(F)F)C3=O)c2c1	–	Sprague Dawley rats	oral, 100 mg/kg twice daily, 7 days	–	serum ALT activity	57.3 ± 2.87 U/L
Cc1ccc([C@@H]2O[C@H](CO)[C@@H](O)[C@H](O)[C@H]2O)cc1Cc1ccc(-c2ccc(F)cc2)s1	item: inorganic phosphorus	Japanese type 2 diabetes patients	200 mg, day 15, 24 h urine collection	relative to: baseline	urinary phosphate excretion change	18.1 mg
CCn1ccc(=O)c(O)c1C.Cl	shake-flask, item: iron(III) complex	1-octanol/Tris buffer	pH 7.4, ligand:iron 10:1	–	partition coefficient	0.04 ± 0.006
O=C(COc1ccc(N2C(=O)[C@@H]3[C@@H]4C=C[C@@H]([C@H]5C[C@@H]45)[C@@H]3C2=O)cc1)c1cc(Cl)cc(Cl)c1	–	female CD-1 mice, brain	oral, 20 mg/kg	–	free brain Cmax	14 nM
O=C1c2ccncc2C(=O)c2c1[nH]c1ccccc21	–	Sprague-Dawley rat female, plasma	intravenous, 1 mg/kg	–	volume of distribution	1.9 ± 1.2 L
COc1cccc(OC)c1-c1cc(C(=O)NC2(C(=O)O)C3CC4CC(C3)CC2C4)nn1-c1ccc(C(=O)N(C)CCCN(C)CCCN(C)C(=O)CN2CCN(CC(=O)[O-])CCN(CC(=O)[O-])CCN(CC(=O)[O-])CC2)cc1C(C)C.[177Lu+3] (stereo not drawn)	–	mouse HT-29 xenograft	168 h, biodistribution	relative to: tumour over pancreas	tumour-to-pancreas ratio	9.63
C[Si]1(C)O[Si](C)(C)O[Si](C)(C)O[Si](C)(C)O[Si](C)(C)O[Si](C)(C)O1	IVIVE from S9	rainbow trout (Oncorhynchus mykiss)	–	–	whole-body biotransformation rate constant	0.008 day⁻¹ and 0.004 day⁻¹ and 0.007 day⁻¹
N=C(N)NCCNC(=O)C1(Nc2ccccc2)CCN(Cc2ccccc2)CC1	–	male Sprague-Dawley rats, plasma	oral, 50 mg/kg	–	apparent volume of distribution	0.2 L
COc1ccc2c(=O)n(C)c(-c3ccccc3)nc2c1	–	Sprague-Dawley rat, male, lung	oral, 30 mg/kg, 0.25 h	relative to: lung over plasma	tissue/plasma ratio	0.95
N#Cc1ccc2c(c1)[C@H]1CCCN(C(=O)c3ccc4[nH]cnc4c3)[C@H]1C2	–	human	10 mg, day 7	–	minimum ACTH level	1.2 pmol/L
COc1nnc2ccc(N3CCC(c4ccc(OCCN5CCN(C)C(=O)[C@H]5C)cc4)CC3)nn12	–	patients, plasma	oral, 10 mg twice daily, single dose, monotherapy	–	AUC(0-t)	0.156 µM·h
COc1cc2c3c(n(CCCN4CCOCC4)c(=O)c2cc1OC)-c1cc2c(cc1C3=O)OCO2	–	beagle dog, male, plasma	intravenous infusion, 50 mg/m^2, 1 h infusion, vehicle 1	–	t1/2	6.6 ± 1.7 h
O=C(O)CN1CCCN2CCN(CC(=O)O)CCCN(CC1)Cc1cccc(n1)C2	–	5 M HCl	90 °C	–	copper(II) complex dissociation half-life	2.7 h
O=C(O)CCCOc1ccc([18F])cc1-c1cc(-c2ccccc2C(F)(F)F)n(-c2ccccc2)n1	gamma counting	male ddY mice, kidney	intravenous, 2.1 MBq, 15 min	–	radioactivity uptake	3.12 ± 0.4 SUV
CNCCOC12CC3(C)CC(C)(CC(Cn4ncc(-c5ccc(N6CCc7cccc(C(=O)Nc8nc9ccccc9s8)c7C6)nc5C(=O)O)c4C)(C3)C1)C2	–	anaesthetised male beagle dogs	intravenous bolus, 0.03 mg/kg, 30 min	relative to: baseline	cardiac output change	-8%
c1cc2ccc3ccc4ccc5cccc6c(c1)c2c3c4c56	–	polyethylene-water partitioning	PAH compilation	relative to: maximum over minimum K	literature range factor	35
C[C@H]1O[C@@H](O[C@H]2[C@@H](O)C[C@H](O[C@H]3[C@@H](O)C[C@H](O[C@H]4CC[C@@]5(C)[C@H](CC[C@@H]6[C@@H]5C[C@@H](O)[C@]5(C)[C@@H](C7=CC(=O)OC7)CC[C@]65O)C4)O[C@@H]3C)O[C@@H]2C)C[C@H](O)[C@@H]1O	item: oral herpes	healthy men	dose not given, 8 days, treatment-emergent, crossover trial	–	subjects with adverse event	0%
Cc1cc(-c2nccc3c2ccn3CC(=O)Nc2ccc(-c3cnccn3)cn2)ccn1	–	human	5 mg once daily, multiple ascending dose	–	subjects with limb injury	0%
CCC(=O)N(CCC(c1ccc2c(c1)OCO2)c1ccccc1OC)Cc1ccccc1 (stereo not drawn)	–	female athymic nude mouse, blood	i.p., 60 mg/kg twice daily, 14 days, group mean	–	DBIL	0 mg/dL
CCn1cc(C(=O)N2CCOCC2)c(=O)c2cc(NC3Cc4ccccc4C3)cnc21	–	human, fasted	oral suspension, 2000 mg single dose, arithmetic mean	–	AUC(0-last)	5190 ng·h/mL
COc1cc(Nc2ncc3c(n2)-c2ccc(Cl)cc2C(c2c(F)cccc2OC)=NC3)ccc1C(=O)O	–	cancer patients	oral, dose not given, all grades any attribution, added: pembrolizumab	–	patients with increased INR	13%
COc1ccc2[nH]c([S@+]([O-])Cc3ncc(C)c(OC)c3C)nc2c1	–	human, dried blood spots	10 mg omeprazole, median, added: voriconazole	relative to: with voriconazole over alone	AUC ratio	3.8
COc1ccc2c(c1)CN(C(=O)CCN1CCC(Cc3ccccc3)CC1)CC[S@@+]2[O-]	telemetry	conscious male beagle dogs	intravenous, NG, 0.5 h	–	PQ interval	85 ± 3 ms
CN(C(=O)n1cnc(-c2cccnc2)c1)C1CCCCC1	–	Wistar rat, pons	oral, 10 mg/kg/day of BIA 10-2474, 4 h, repeated 5 days	–	concentration	33.6 ± 7.5 ng/g
CN1CC(=O)N2[C@H](c3ccc4c(c3)OCO4)c3[nH]c4ccccc4c3C[C@@H]2C1=O	–	human plasma	1.50 ng/mL, freeze-thaw at -20 °C	–	accuracy	100%

SMILES	test	system	setting	how to read	measurement	result
Cc1nc2cccc(OCC(C)(C)C(=O)NC(C)C)c2c(N)c1C(=O)O	–	male Swiss albino CD-1 mouse, bone marrow	oral, 2000 mg/kg, 48 h	–	PCE/NCE ratio	0.82
CC(C)(C(=O)N1CCOc2c(C#N)cncc2C1)C(F)F	item: cutaneous vasculitis	human, both sexes	oral, 10 mg once daily, 14 days, multiple ascending dose	–	subjects with TEAE	0%
CO[C@H]1CC[C@H](N2C(=O)CNc3ncc(-c4ccc(C(C)(C)O)nc4)nc32)CC1	–	patients, plasma	oral, 45 mg, day 15, geometric mean	–	AUC(0-t)	1350 ng·h/mL
CC(C)NCCCC[C@@H]1NC(=O)[C@H](Cc2ccc(O)cc2)NC(=O)[C@H](Cc2ccccc2)NC(=O)CC[C@H](C(=O)N[C@@H](CCCCNC(C)C)C(=O)N[C@@H](CCCCNC(=O)[C@H](CCC(=O)O)NC(=O)[C@H](CCC(=O)O)NC(=O)[C@H](CCC(=O)O)NC(=O)CN2CCN(CC(=O)O)CCN(CC(=O)O)CCN(CC(=O)O)CC2)C(N)=O)NC(=O)CNC(=O)[C@H](Cc2ccc3ccccc3c2)NC(=O)[C@@H](CCCNC(=N)N)NC1=O [gallium-68 labelled]	–	mouse with PC-3 xenograft, stomach	intravenous, 1 h	–	tissue uptake	0.1 %ID/g
O=C(Nc1nc2cccc(-c3ccc(CN4CCS(=O)(=O)CC4)cc3)n2n1)C1CC1	item: somnolence	rheumatoid arthritis patients	oral, 75 mg once daily, 4 weeks, any relatedness	–	treatment-emergent adverse events	0%
C=CC(=O)Nc1cc(Nc2nccc(-c3cn(C)c4ccccc34)n2)c(OC)cc1N(C)CCN(C)C	storage stability	human dried blood spots	5 h, -80 °C, high QC level	–	recovery	95.5%
Nc1ncnc2c1ncn2[C@H]1C[C@@H]2OP(=O)(O)OC[C@H]3O[C@@H](n4cnc5c(N)ncnc54)C[C@@H]3OP(=O)(O)OC[C@H]2O1	–	non-tumor-bearing mice, blood	intravenous, 1 mg/kg, toxicity study	–	basophil percentage	0.45 ± 0.13%
O=C(COc1ccc(Cl)cc1)NC12CC(c3nnc([C@H]4C[C@@H](OC(F)(F)F)C4)o3)(C1)C2	–	healthy human volunteers fasted, plasma	oral, 45 mg single dose, arithmetic mean	–	AUC	30.9 µM·h
O=C(O)c1cccc(C(=O)O)c1	–	betaine/propylene glycol DES-water	DES mass fraction 0.90	–	apparent dissolution enthalpy	5.95 kcal/mol
Cc1cc(C)c(CNC(=O)c2cc(Cl)c3c(c2C)O[C@@](C)([C@H]2CC[C@H](N(C)C)CC2)O3)c(=O)[nH]1	–	human male, urine and feces	oral, 200 mg, 120 h	relative to: dose	radioactivity recovery	90%
C=CC(=O)NC1CCN(c2ncc3ncnc(Nc4ccc(Oc5ccc6c(c5)ncn6C)c(C)c4)c3n2)CC1	item: total radioactivity	healthy male human, whole blood and plasma	oral, 60 mg, 6 h, geometric mean	–	blood-to-plasma ratio	0.802
COc1cc([C@H]2OC[C@H]3[C@@H]2CO[C@@H]3c2ccc(O[C@@H]3O[C@H](CO)[C@@H](O)[C@H](O)[C@H]3O)c(OC)c2)ccc1O[C@@H]1O[C@H](CO)[C@@H](O)[C@H](O)[C@H]1O	post-procedure stability	rat plasma	1000 ng/mL, 1 h, room temperature	–	accuracy	99.2%
COc1ccnc(C(=O)NC(CO)C(=O)O)c1O (racemic)	aerobic dark soil incubation	sandy loam soil	20 °C, modelling endpoint	–	DT50	118 days
O=C(O)CCC(=O)O.[2H]C([2H])([2H])Oc1cc(C)c2[nH]ccc2c1CN1CC[C@@H](C2CC2)C[C@H]1c1ccc(C(=O)O)cc1	–	healthy Chinese subjects	400 mg, single ascending dose	–	TEAE urinary sediment detected	0%
NC1(C(=O)N[C@@H](CCO)c2ccc(Cl)cc2)CCN(c2nc[nH]c3nccc2-3)CC1	–	metastatic CRPC patients	dose not given, grade 3 to 4, treatment-related, all doses, added: enzalutamide 160 mg daily	–	incidence of Dyspepsia	0%
CC(C)[C@H](C(=O)Nc1ccc(C(=O)NO)cc1)c1ccccc1	–	whole blood	10.0 ng/mL, 3 h, 4 °C, stability on ice	–	accuracy	100%
CNC(=O)c1cc(Oc2ccc(NC(=O)Nc3cc(C(C)(C)C)nn3-c3ccc4ncccc4c3)c(F)c2)ccn1	item: worst grade 3	human	oral, dose not given, cycles 1 and 2, High Cmax subgroup	–	patients with visual abnormality AE	6%
NC(=O)c1[nH]cnc1N	–	leiomyosarcoma patients, plasma	intravenous, dose not given, cycle 2 day 1, added: dacarbazine co-administered	relative to: cycle 1 day 1	AUC(0-8h) reduction	72.7%
C[C@@H]1CCO[C@H]2Cn3cc(C(=O)NCc4ccc(F)cc4F)c(=O)c(O)c3C(=O)N12	population PK, post-hoc	children aged 0.25 to 5 years, 6 to <10 kg, plasma	oral, 15 mg dispersible tablet, steady state, geometric mean	–	AUC(0-24)	60100 ng·h/mL
Cn1cc([C@H]2C[C@H]3CSC(N)=N[C@@]3(c3ccc(F)cc3F)CO2)cn1	–	male 129/SVE mouse, brain	subcutaneous, 10 mg/kg, 9 h	–	brain concentration	276 nM
Cc1nc(-c2ccc(OCC(C)C)c(C#N)c2)sc1C(=O)O	–	healthy Chinese subjects, fasted	oral, 40 mg single dose	–	subjects with dizziness	2.6%
CCc1c(-c2ccccc2)c(-c2ccccc2)nn1-c1ccccc1-c1cccc(OCC(=O)O)c1	–	male Sprague-Dawley rat, testis homogenate	oral, 10 mg/kg, 8 h	–	concentration	30.9 ng/mL
CNC(=O)c1ccc(-c2cnc3ncc(Cc4ccc5ncccc5c4)n3n2)cc1F	item: Pyrexia	gastric cancer patients	oral, 600 mg twice daily, expansion cohort, grade 3-4	–	patients with adverse event	11%
Cc1c(-c2ccc(N3CCc4cccc(C(=O)Nc5nc6ccccc6s5)c4C3)nc2C(=O)O)cnn1CC12CC3(C)CC(C)(C1)CC(OCCNCC[C@H](O)CO)(C3)C2	–	beagle dog, male, anaesthetised	intravenous infusion, 0.3 mg/kg/min, 15 (unit not given)	relative to: vehicle	heart rate change	0%
CCO[C@H]1CCN(Cc2c(OC)cc(C)c3[nH]ccc23)[C@H](c2ccc(C(=O)O)cc2)C1	–	PNH patients, active haemolysis	oral, 25 mg, treatment	–	incidence alkaline phosphatase increase	0%
Cc1ccc(C(=O)N(CCCN)C(c2nc3snc(C)c3c(=O)n2Cc2ccccc2)C(C)C)cc1 (stereo not drawn)	–	human patients	intravenous, 10 mg/day	–	grade ≥3 hypokalemia patients	33%
OCC1=C[C@@H](O)[C@@H]2C=CO[C@@H](O[C@@H]3O[C@H](CO)[C@@H](O)[C@H](O)[C@H]3O)[C@H]12	post-procedure stability	rat plasma	8 ng/mL, 3 h, room temperature	–	accuracy	93.1%

A few entries again:
SMILES	test	system	setting	how to read	measurement	result
O=C(Nc1nc2cccc(-c3ccc(CN4CCS(=O)(=O)CC4)cc3)n2n1)C1CC1	item: somnolence	rheumatoid arthritis patients	oral, 75 mg once daily, 4 weeks, any relatedness	–	treatment-emergent adverse events	0%
Cc1nc2cccc(OCC(C)(C)C(=O)NC(C)C)c2c(N)c1C(=O)O	–	male Swiss albino CD-1 mouse, bone marrow	oral, 2000 mg/kg, 48 h	–	PCE/NCE ratio	0.82
NC(=O)c1[nH]cnc1N	–	leiomyosarcoma patients, plasma	intravenous, dose not given, cycle 2 day 1, added: dacarbazine co-administered	relative to: cycle 1 day 1	AUC(0-8h) reduction	72.7%
CCc1cc(C(=O)NC)c2nccc(N3CCc4c(cc(Cn5ccnc5)cc4-c4cn(C)nc4C(F)(F)F)C3=O)c2c1	–	Sprague Dawley rats	oral, 100 mg/kg twice daily, 7 days	–	serum ALT activity	57.3 ± 2.87 U/L
CC(C)NCCCC[C@@H]1NC(=O)[C@H](Cc2ccc(O)cc2)NC(=O)[C@H](Cc2ccccc2)NC(=O)CC[C@H](C(=O)N[C@@H](CCCCNC(C)C)C(=O)N[C@@H](CCCCNC(=O)[C@H](CCC(=O)O)NC(=O)[C@H](CCC(=O)O)NC(=O)[C@H](CCC(=O)O)NC(=O)CN2CCN(CC(=O)O)CCN(CC(=O)O)CCN(CC(=O)O)CC2)C(N)=O)NC(=O)CNC(=O)[C@H](Cc2ccc3ccccc3c2)NC(=O)[C@@H](CCCNC(=N)N)NC1=O [gallium-68 labelled]	–	mouse with PC-3 xenograft, stomach	intravenous, 1 h	–	tissue uptake	0.1 %ID/g
COc1ccc2c(c1)CN(C(=O)CCN1CCC(Cc3ccccc3)CC1)CC[S@@+]2[O-]	telemetry	conscious male beagle dogs	intravenous, NG, 0.5 h	–	PQ interval	85 ± 3 ms
C[C@@H](N)C1CCN(S(=O)(=O)c2cccc3cnccc23)CC1	–	healthy volunteers	250 mg, fasted	–	participants with TEAEs	66.7%
